Measurements of several laboratories.
Each line is one published result; not all experiments were run side by side. ± marks the error that the study gave.
HCRTR1: Orexin/Hypocretin receptor type 1 (HCRTR1, Homo sapiens, UniProt O43613)
UniProt O43613, sequence (whole entry, looked up): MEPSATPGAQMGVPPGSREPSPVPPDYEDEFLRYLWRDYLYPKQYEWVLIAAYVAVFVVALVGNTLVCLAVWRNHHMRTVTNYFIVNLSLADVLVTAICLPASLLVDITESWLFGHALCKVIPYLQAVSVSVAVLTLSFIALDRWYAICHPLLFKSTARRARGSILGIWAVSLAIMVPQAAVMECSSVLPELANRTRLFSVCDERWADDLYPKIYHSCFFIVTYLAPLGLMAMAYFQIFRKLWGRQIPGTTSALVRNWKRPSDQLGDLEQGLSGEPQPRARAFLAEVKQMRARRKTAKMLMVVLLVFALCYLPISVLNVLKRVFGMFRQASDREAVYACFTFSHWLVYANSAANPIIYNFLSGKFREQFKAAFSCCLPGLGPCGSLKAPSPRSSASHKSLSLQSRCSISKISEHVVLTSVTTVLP
UniProt Q00195, sequence (whole entry, unmodified, looked up): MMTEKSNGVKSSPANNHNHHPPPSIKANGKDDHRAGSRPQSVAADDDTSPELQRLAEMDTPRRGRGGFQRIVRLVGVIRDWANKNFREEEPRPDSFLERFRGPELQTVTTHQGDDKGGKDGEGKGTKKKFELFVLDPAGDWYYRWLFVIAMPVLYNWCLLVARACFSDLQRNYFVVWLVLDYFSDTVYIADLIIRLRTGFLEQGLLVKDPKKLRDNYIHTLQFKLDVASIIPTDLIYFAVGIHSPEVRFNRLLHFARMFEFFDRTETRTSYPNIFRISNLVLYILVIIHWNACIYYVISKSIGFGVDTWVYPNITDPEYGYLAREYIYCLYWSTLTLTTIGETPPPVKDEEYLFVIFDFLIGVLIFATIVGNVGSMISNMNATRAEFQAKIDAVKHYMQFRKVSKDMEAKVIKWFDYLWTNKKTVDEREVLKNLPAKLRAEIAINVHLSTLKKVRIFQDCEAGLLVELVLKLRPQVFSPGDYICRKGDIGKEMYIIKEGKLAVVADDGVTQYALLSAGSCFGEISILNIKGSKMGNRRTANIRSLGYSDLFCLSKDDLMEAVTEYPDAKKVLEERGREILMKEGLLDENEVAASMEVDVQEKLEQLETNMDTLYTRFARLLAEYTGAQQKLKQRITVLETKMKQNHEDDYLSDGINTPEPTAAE

| SMILES | tested on | test | system | conditions | scale | endpoint | result |
| --- | --- | --- | --- | --- | --- | --- | --- |
| O=C1CSC(=S)N1/N=C/c1c[nH]c2ccc([N+](=O)[O-])cc12 | Trypanosoma equiperdum |  | trypomastigotes, IVM-t1 |  |  | IC50 | > 61 µM |
| N#Cc1ccc(C2SCCNC3=C2C(=O)c2ccccc23)cc1 (centres unmarked) | Chlamydia trachomatis | inclusion formation, immunofluorescence imaging | HEp-2, serovar L2 | 24 h post-infection, added 8 h post-infection |  | IC50 | > 25 mg/L |
| CCCCc1ccc(NC(=O)c2ccc(OC)c(NC)c2)cc1 | Enterovirus A | cytopathic effect | Vero, EV71 | 48 h |  | IC50 | 6.89 µM |
| CC(C)[C@H](NC(=O)[C@@H]1CCCN1C(=O)[C@H](CCCNC(=N)N)NC(=O)[C@H](CS)NC(=O)[C@H](Cc1c[nH]c2ccccc12)NC(=O)[C@H](CCCNC(=N)N)NC(=O)[C@@H](Cc1ccccc1)NC(=O)[C@H](Cc1c[nH]cn1)NC(=O)[C@H](CCC(=O)O)NC(=O)[C@H](CS)NC(=O)[C@H](CS)NC(=O)[C@H](CCCCN)NC(=O)[C@@H]1CC(=O)N[C@@H](CCCNC(=N)N)C(=O)N[C@@H](C)C(=O)N[C@@H](CC(=O)O)C(=O)N[C@H](Cc2ccc(O)cc2)C(=O)N1)C(N)=O [technetium-99m labelled] |  |  | C57 mice, tumor | intravenous, 0.037 MBq, 4 h |  | tissue uptake | 18 ± 3.51 %ID/g |
| O=C1C2=C(Nc3ccccc3SC2c2cccc(O)c2)c2ccccc21 (centres unmarked) | Chlamydia trachomatis | inclusion formation, immunofluorescence imaging | HEp-2, serovar L2 | 24 h post-infection, added 8 h post-infection |  | IC50 | ~16 mg/L |
| C#CCn1cc(/C=N/N2C(=O)CSC2=S)c2cc([N+](=O)[O-])ccc21 | Trypanosoma equiperdum |  | trypomastigotes, IVM-t1 |  |  | IC50 | > 59 µM |
| NC(=O)c1ncn([C@@H]2O[C@H](CO)[C@@H](O)[C@H]2O)n1 | Porcine epidemic diarrhea virus | cytopathic effect, SRB | Vero | 48 h |  | IC50 | 4.1 mg/L |
| O=C1NC(=S)S/C1=C\c1cn(Cc2cccc(Cl)c2)c2ccc([N+](=O)[O-])cc12 | Trypanosoma equiperdum |  | trypomastigotes, IVM-t1 |  |  | IC50 | > 61 µM |
| COc1cc2c(cc1OC)C(Cc1ccc(O)c([N+](=O)[O-])c1)N(CC(=O)NCc1ccccc1)CC2 (centres unmarked) | HCRTR1 | calcium signal, antagonist, fluorescence |  |  |  | Kb | > 10 µM |
| Cc1ccc(Cn2cc(/C=N/N3C(=O)CSC3=S)c3cc([N+](=O)[O-])ccc32)cc1 | Trypanosoma equiperdum |  | trypomastigotes, IVM-t1 |  |  | IC50 | > 58 µM |
| CCC(=O)Nc1cccc(C(=O)Nc2ccc(Cl)cc2)c1 | Enterovirus A | cytopathic effect | Vero, EV71 | 48 h |  | IC50 | 14.2 µM |
| O=c1cc[nH]c(=O)[nH]1 | Trichomonas vaginalis | transport, item: nucleoside transporter |  | with: thymidine |  | Ki | > 1000 µM |
| O=C1C2=C(Nc3ccccc3SC2c2ccccc2C(=O)O)c2ccccc21 (centres unmarked) | Chlamydia trachomatis | inclusion formation, immunofluorescence imaging | HEp-2, serovar L2 | 24 h post-infection, added 8 h post-infection |  | IC50 | > 25 mg/L |
| Nc1nc2c(ncn2[C@@H]2O[C@@H]3COP(=O)(O)O[C@H]3[C@H]2O)c(=O)[nH]1 | Cnga2 (Rattus norvegicus, UniProt Q00195, C460W/del61-90/E583M) | agonist, inside-out patch clamp |  | concentration not given | reference: saturating cAMP | relative maximal current | < 20% |
| CCC(=O)Nc1cc(C(=O)CNc2ccc(C)cc2)ccc1OC | Enterovirus A | cytopathic effect | Vero, EV71 | 48 h |  | IC50 | > 22.7 µM |
| O=C1C2=C(Nc3ccccc3SC2c2ccc(Br)cc2)c2ccccc21 (centres unmarked) | Chlamydia trachomatis | inclusion formation, immunofluorescence imaging | HEp-2, serovar L2 | 24 h post-infection, added 8 h post-infection |  | IC50 | 7.5 ± 1.01 mg/L |
| CCC(=O)Nc1cc(C(=O)Nc2ccc(N3CCN(C)CC3)cc2)ccc1OC | Enterovirus A | cytopathic effect | Vero, EV71 | 48 h |  | IC50 | > 168 µM |
| O=C1NC(=S)S/C1=C\c1cn(Cc2ccc(F)cc2)c2ccc([N+](=O)[O-])cc12 | Trypanosoma equiperdum |  | trypomastigotes, IVM-t1 |  |  | IC50 | > 63 µM |
| O=c1[nH]cnc2c1ncn2[C@@H]1O[C@H](CO)[C@@H](O)[C@H]1O | Trichomonas vaginalis | transport, item: nucleoside transporter |  | with: thymidine |  | Ki | 78 ± 15 µM |
| CC[C@H](C)[C@H](NC(=O)[C@H](CCC(=O)O)NC(=O)[C@H](CO)NC(=O)[C@@H](NC(=O)[C@@H](N)CO)C(C)C)C(=O)N[C@@H](CCC(N)=O)C(=O)N[C@@H](CC(C)C)C(=O)N[C@@H](CCSC)C(=O)N[C@@H](Cc1cnc[nH]1)C(=O)N[C@@H](CC(N)=O)C(=O)N[C@@H](CC(C)C)C(=O)NCC(=O)N[C@@H](CCCCN)C(=O)N[C@@H](Cc1cnc[nH]1)C(=O)N[C@@H](CC(C)C)C(=O)N[C@@H](CC(N)=O)C(=O)N[C@@H](CO)C(=O)N[C@@H](CCSC)C(=O)N[C@@H](CCC(=O)O)C(=O)N[C@@H](CCCN=C(N)N)C(=O)N[C@H](C(=O)N[C@@H](CCC(=O)O)C(=O)N[C@@H](Cc1c[nH]c2ccccc12)C(=O)N[C@@H](CC(C)C)C(=O)N[C@@H](CCCN=C(N)N)C(=O)N[C@@H](CCCCN)C(=O)N[C@@H](CCCCN)C(=O)N[C@@H](CC(C)C)C(=O)N[C@@H](CCC(N)=O)C(=O)N[C@@H](CC(=O)O)C(=O)N[C@H](C(=O)N[C@@H](Cc1cnc[nH]1)C(=O)N[C@@H](CC(N)=O)C(=O)N[C@@H](Cc1ccccc1)C(=O)O)C(C)C)C(C)C | Chymotrypsinogen A, activated (chymotrypsin) (Bos taurus, UniProt P00766) | substrate, HPLC-UV |  | 15 min, pH 6.5, 37 °C, without trypsin inhibitor |  | remaining intact compound | 0% |
| CCCCCCNC(=O)Nc1ccc(CC2c3cc(OC)c(OC)cc3CCN2CC(=O)NCc2ccccc2)cc1 (centres unmarked) | HCRTR1 | calcium signal, antagonist, fluorescence |  |  |  | Kb | > 10 µM |
| CCC(=O)Nc1cc(C(=O)Nc2ccc(C(C)C)cc2)ccc1OC | Enterovirus A | cytopathic effect | Vero, EV71 | 48 h |  | IC50 | 8.41 µM |
| O=[N+]([O-])c1ccc2[nH]ccc2c1 | Trypanosoma equiperdum |  | trypomastigotes, IVM-t1 |  |  | IC50 | > 154 µM |
| O=C1C(=O)N(CC#CCN2CCN(c3ccnc4cc(Cl)ccc34)CC2)c2ccccc21 | Tritrichomonas foetus | growth | D1 |  |  | IC50 | 22.2 µM |
| C[C@H]1[C@H](C)CC[C@]2(C(=O)O)CC[C@]3(C)C(=CC[C@@H]4[C@@]5(C)CC[C@H](O)C(C)(C)[C@@H]5CC[C@]43C)[C@H]12 | Eimeria tenella | viability | sporozoites | 24 h |  | IC50 | 47.8 µM |
| CCC(=O)Nc1cc(C(=O)CNc2ccc(C(C)(C)C)cc2)ccc1OC | Enterovirus A | cytopathic effect | Vero, EV71 | 48 h |  | IC50 | > 20.1 µM |
| Cc1ncc([N+](=O)[O-])n1CCO | Tritrichomonas foetus | growth | D1 |  |  | IC50 | 0.72 µM |
| CCC(=O)Nc1cc(C(=O)Nc2ccc(C(C)(C)C)cc2)ccc1O | Enterovirus A | cytopathic effect | Vero, EV71 | 48 h |  | IC50 | 9.1 µM |
| CC1(C)CC[C@]2(C(=O)O)CC[C@]3(C)C(=CC[C@@H]4[C@@]5(C)CC[C@H](O)C(C)(C)[C@@H]5CC[C@]43C)[C@@H]2C1 | Eimeria tenella | viability | sporozoites | 24 h |  | IC50 | 21.2 µM |

Some of these lines once more:
| SMILES | tested on | test | system | conditions | scale | endpoint | result |
| --- | --- | --- | --- | --- | --- | --- | --- |
| COc1cc2c(cc1OC)C(Cc1ccc(O)c([N+](=O)[O-])c1)N(CC(=O)NCc1ccccc1)CC2 (centres unmarked) | HCRTR1 | calcium signal, antagonist, fluorescence |  |  |  | Kb | > 10 µM |
| Cc1ccc(Cn2cc(/C=N/N3C(=O)CSC3=S)c3cc([N+](=O)[O-])ccc32)cc1 | Trypanosoma equiperdum |  | trypomastigotes, IVM-t1 |  |  | IC50 | > 58 µM |
| CCC(=O)Nc1cccc(C(=O)Nc2ccc(Cl)cc2)c1 | Enterovirus A | cytopathic effect | Vero, EV71 | 48 h |  | IC50 | 14.2 µM |
